Measurements pooled from the literature.
Each numbered part is a random draw from the data of one study; scales do not carry over between parts. Substitutions count along the parent as printed.

Series 1 — technique: protein-binding microarray; form: double-stranded DNA, one strand shown; matrix: in vitro; concentration: 250 nM; notes: 60-bp whole probe; added: salmon DNA 0.4 mg/ml; baseline: random background probes; direction: higher = stronger binding; endpoint: log fluorescence; shared flanks, not repeated: GCCTAGCAC … GTCTTGATTCGCTTGACGCTGCTG
Target: Interferon regulatory factor 7, full length, phosphomimetic (IRF7, Homo sapiens, UniProt Q92985, residues 1-503, S101K/S471D/S472D/S475D/S476D/S477D/S483D/S484D/S487D)
Sequence of UniProt Q92985 (whole entry, unmodified, looked up): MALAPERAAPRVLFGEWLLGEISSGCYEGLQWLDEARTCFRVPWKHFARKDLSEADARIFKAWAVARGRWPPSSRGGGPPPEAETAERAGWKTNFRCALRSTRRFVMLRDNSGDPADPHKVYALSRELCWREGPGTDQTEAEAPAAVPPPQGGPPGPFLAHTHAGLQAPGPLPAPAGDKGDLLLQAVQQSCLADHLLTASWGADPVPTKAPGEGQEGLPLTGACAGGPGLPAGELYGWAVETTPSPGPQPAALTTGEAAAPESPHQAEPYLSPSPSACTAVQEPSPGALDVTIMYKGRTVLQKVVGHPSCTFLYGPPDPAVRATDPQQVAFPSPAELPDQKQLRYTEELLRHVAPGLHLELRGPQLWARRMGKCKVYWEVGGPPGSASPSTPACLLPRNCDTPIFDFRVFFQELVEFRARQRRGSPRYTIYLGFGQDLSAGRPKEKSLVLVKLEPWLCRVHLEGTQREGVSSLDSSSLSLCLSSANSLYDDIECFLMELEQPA
TTAGATTACGGGTTTCGATTAGTGCTA: 6.89 z-score
TCACCTGTCTACATGGGACTGTGCTAG: -0.102 z-score
GACGGTATCGGTCACGGGACGTGCTAG: -0.0318 z-score
TTAGAACTGAGTTTCGATTAGTGCTAG: 8.12 z-score
GATAATTTTTTTCTAAGTAAGTGCTAG: 0.216 z-score
TTAGGTATCGACGCTGGGTTAGTGCTA: -0.297 z-score
TTAGGTATCGGGACTGGTTTAGTGCTA: 0.426 z-score
TTATGTTTCGGTCTCGGTTAGTGCTAG: 4.87 z-score
AATGAGGCACTGAGAGCAGAGTGCTAG: -1.06 z-score

Series 2 — technique: RNA Bind-n-Seq; form: RNA; matrix: in vitro; concentration: 1 µM; notes: whole 134-nt RNA, ends assumed; added: 150 mM KCl; baseline: input library; direction: higher = stronger binding; endpoint: log2 enrichment
Target: Ras GTPase-activating protein-binding protein 1, C-terminal RGG region (G3BP1, Homo sapiens, UniProt Q13283)
Sequence of UniProt Q13283 (whole entry, looked up): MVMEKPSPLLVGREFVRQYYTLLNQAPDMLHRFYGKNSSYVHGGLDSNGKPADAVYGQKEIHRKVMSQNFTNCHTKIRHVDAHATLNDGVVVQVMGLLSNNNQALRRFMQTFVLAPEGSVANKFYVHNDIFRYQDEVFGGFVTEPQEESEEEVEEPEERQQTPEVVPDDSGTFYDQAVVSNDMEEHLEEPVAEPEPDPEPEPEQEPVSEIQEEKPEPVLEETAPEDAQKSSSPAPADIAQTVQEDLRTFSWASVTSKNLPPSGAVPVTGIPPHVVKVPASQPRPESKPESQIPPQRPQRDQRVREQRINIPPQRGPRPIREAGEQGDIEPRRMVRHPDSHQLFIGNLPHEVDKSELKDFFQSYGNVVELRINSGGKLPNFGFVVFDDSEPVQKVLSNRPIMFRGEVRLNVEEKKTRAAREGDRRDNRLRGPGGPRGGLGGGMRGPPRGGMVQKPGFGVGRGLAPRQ
Shared flanks, not repeated: GGGAGUUCUACAGUCCGACGAUC … UGGAAUUCUCGGGUGUCAAGG
UCAAGUCCUGUGCUACACAUCGUAUGUACCGAAUCGGGUUUGGGUUUGGGAGGGAAAGUAUUAUGUUACGCCGUUCGGAUCUGCACUUCC: 1.9
CUGUGCUACACAUCGUAUGUACCGAAUCGGGGUUUUUGGGGAAAAAAAGGGGUUUUUGGGGAAAGUAUUAUGUUACGCCGUUCGGAUCUG: 0.64
GUCCUGUGCUACACAUCGUAUGUACCGAAUCGGAAAAAAAGGUUUUUGGAAAAAAAGGAAAGUAUUAUGUUACGCCGUUCGGAUCUGCAC: -2.01
UGGCCCUGGUGGCAUGCGGGGAGGAAGAGGUGGCCUCAUGGGUCGUGGUGGUCCCGGUGGAAUGUUCAGAGGUGGCCGUGGUGGAGACAG: 1.91
UGCAGCAGCGCCAGGAAUCGAGGAUGGUAAAAUGACCCAGGGGAAGAAGAAGAAACGGGCCGCGAACCGCAGUAUCAUGCUGGCCAAGAA: -0.796
AAGUCCUGUGCUACACAUCGUAUGUACCGAAUCGGGAAAAGGGAAAAGGGAAAAGGAAAGUAUUAUGUUACGCCGUUCGGAUCUGCACUU: -1.61
CCUGUGCUACACAUCGUAUGUACCGAAUCAAAUUUUUAAACCCCCCCAAAUUUUUUUAAAAAAGUAUUAUGUUACGCCGUUCGGAUCUGC: -0.724
CACAGACAACACGCACACACACAGACACAGAGGGAAGGGGUUGGGAUGGGGACAGGGUGCACAGCAGGGCGGGGUAGGACCCCAGCCCCU: 0.415
UGCUGUUCAGGUGGUGGAGAAGAAGAUGGAACCCCAGGCUGCCUGGCUACAGAGCCUGGAGGGAUGCAUGUGGACAGCCAAGAAGAAGCU: -2.04
CAAGUCCUGUGCUACACAUCGUAUGUACCGAAUCGGAAAAGGAAAAGGAAAAGGGGAAAGUAUUAUGUUACGCCGUUCGGAUCUGCACUU: -1.93
UCCUGUGCUACACAUCGUAUGUACCGAAUCGGGAAAAAAAGGGUUUUUGGGAAAAAGGGAAAGUAUUAUGUUACGCCGUUCGGAUCUGCA: -0.615
UCCUCAAGUCCUGUGCUACACAUCGUAUGUACCGAAUCGUGUGUGUGUGUGUAAAGUAUUAUGUUACGCCGUUCGGAUCUGCACUUCCAG: 0.859
AAGUCCUGUGCUACACAUCGUAUGUACCGAAUCGGUUUUUUUGGAAAAAGGUUUGGAAAGUAUUAUGUUACGCCGUUCGGAUCUGCACUU: -2.5
UGCUCUCCGUGCCACAUGCGCCCGCAGGUUACGCCAAGGAGGCCCUGAAUCUGGCGCAGAUGCAGGAGCAGACGCUGCAGUUGGAGCAAC: -2.34

Series 3 — technique: protein-binding microarray; form: hairpin DNA; matrix: in vitro; concentration: not given; baseline: not given; direction: higher = stronger binding; endpoint: median fluorescence
Target: Protein C-ets-1, full length (ETS1, Homo sapiens, UniProt P14921, residues 1-441)
Notes: whole hairpin DNA, median over replicate spots
Construct (chain): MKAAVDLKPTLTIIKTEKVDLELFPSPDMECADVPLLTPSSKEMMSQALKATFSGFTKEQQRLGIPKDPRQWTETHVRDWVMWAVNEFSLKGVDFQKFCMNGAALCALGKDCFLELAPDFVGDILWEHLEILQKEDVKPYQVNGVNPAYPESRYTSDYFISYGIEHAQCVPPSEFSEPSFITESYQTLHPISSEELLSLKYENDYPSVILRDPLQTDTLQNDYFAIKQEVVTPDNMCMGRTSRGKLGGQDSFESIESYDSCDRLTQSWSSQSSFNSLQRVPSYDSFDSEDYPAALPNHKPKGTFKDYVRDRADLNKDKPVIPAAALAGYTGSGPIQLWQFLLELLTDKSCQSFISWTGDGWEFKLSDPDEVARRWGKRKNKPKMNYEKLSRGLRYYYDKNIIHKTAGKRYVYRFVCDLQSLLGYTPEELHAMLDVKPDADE
GAGGCCAGTAGGAAGTTGCCTCCTGGCAACTTCCTACTGGCCTCACACTC: 2040 a.u.
GAGGCCAGCCGGATGTTGCCTCCTGGCAACATCCGGCTGGCCTCACACTC: 7870 a.u.
GAGGCCAGTCGGCGGTTGCCTCCTGGCAACCGCCGACTGGCCTCACACTC: 562 a.u.
GAGGCCAGCCGGACGTTGCCTCCTGGCAACGTCCGGCTGGCCTCACACTC (5mC at 14 30): 2350 a.u.
GAGGCCACGCGGAAGTTGCCTCCTGGCAACTTCCGCGTGGCCTCACACTC (5mC at 8): 3290 a.u.
GAGGCCCGCCGGAAGTTGCCTCCTGGCAACTTCCGGCGGGCCTCACACTC (5mC at 37): 10400 a.u.
GAGGCCAGTTGGAAGTTGCCTCCTGGCAACTTCCAACTGGCCTCACACTC: 646 a.u.
GAGGCCAGCCGGAAGGTGCCTCCTGGCACCTTCCGGCTGGCCTCACACTC: 3140 a.u.
GAGGCCAGCCGGAACGTGCCTCCTGGCACGTTCCGGCTGGCCTCACACTC: 920 a.u.
GAGGCCAGTCGGAACGTGCCTCCTGGCACGTTCCGACTGGCCTCACACTC (5mC at 15): 599 a.u.
GAGGCCAGTCGGCGGTTGCCTCCTGGCAACCGCCGACTGGCCTCACACTC (5mC at 13 31): 547 a.u.
GAGGCCAGCCGGAAGCGGCCTCCTGGCCGCTTCCGGCTGGCCTCACACTC (5mC at 16): 6180 a.u.

Series 4 — technique: RNA Bind-n-Seq; form: RNA; matrix: in vitro; concentration: 365 nM; baseline: no-protein control; direction: higher = stronger binding; endpoint: RBNS enrichment (R)
Target: RNA binding protein fox-1 homolog 2, RRM domain, GST-SBP tag (RBFOX2, Homo sapiens, UniProt O43251-10, residues 100-194)
Notes: natural RNA segment, single round, ends assumed
Shared flanks, not repeated: GGGAGUUCUACAGUCCGACGAUC … UGGAAUUCUCGGGUGCCAA
Construct (chain): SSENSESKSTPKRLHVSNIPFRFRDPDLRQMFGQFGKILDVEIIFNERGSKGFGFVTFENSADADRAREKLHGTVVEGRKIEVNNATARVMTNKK
GACACAAAUAGGUUUUGGGGAUCUACCUAAGGGAUAGGUCUACUCCAAAAUUAUUAAAUUUAUAAUUGUGCAAUUCUGUAAUUUCCCAAGGCAUAAGUAAUAUGACCCUA: 0.677
UAGAAUGAAGUAUCUUAGUUUAAAGGGUAAGAGAGAAGUUGUUUCUGGUUUUUCCUUGCCCCUGUGUGAAAAUAGGUCCUAAAUGACUGACUUCACUGCAUUAGACCCUA: 0.606
CCUCAGUCCUGUGUCCCUUUUUCUCUUGGGUUGAGCCUGUGGCUCAUCCCCUUUGUCCUUUUGGGAAGCAAGUAUCUAUUCCAGUCUCAAGUCCUGCAGUUGCUGGAGCG: 0.493
AUGAUUAAUAUAAAUUAGUAUACUUUGGCUCUGUGGAAAAGUGUAAAUUGUGGUUUUAGAAACCAACUCUUGAUAGUUGUACUGUGAUUAUAAAAAACAAUUGUUAAAUA: 0.878
CCACUCCAGCUGGGCCGGUGUGCAGUGGGCCAGGGUCCUCACCUGCCUUGCAGACCCUGGUUCCCGCCCUGUGGAUCUCUCAGCACUACUGAUGUGUCCUGGGUUGGCAG: 2.48
GGCAGGAUUGUACAAUGAGCAACUAUCAGAUUAUUCCUUUCAGUGGUUCUUAUGGCAUCUAAAUUACUGAAUAAAUUAUUAAUCCAUUAAUCAGUGAAUCAAAUUAUGAU: 0.774
CGUUCACUUACUGUAUAAUUUAAAAUCAUUUAUGUAGCUGAGACACUUCUGUAUUUCAAUCAUAUCAUGAACAUUUUAUUUUGCUAAAUCUUGUGUCAUGUGUAGGCUGU: 0.316
GCAGCGAUACCAGAGCCACCCGGACGCCGCUGUGCAGUGCGUGGCCUGCGGCCGGGCUGCCCUUCGCUGCCAGGACACCUGCCCCAGCGCGGCUUGGCCGCCAUCCGGGA: 0.174
AAAAGUUAACUUGUAUUAUGUAUUUUUACUACACUUUUCUUAAAAAUAGAGCAUUGGGAAAACUCUGAAAGAGACUGACAUUUUUCUCAACAGGAAUCCAUACUUAACAG: 0.58
UAGUCAUGACUGCAAAGAGAGAGAAUAAACUGCCCGCUCAGAAGAUAUGUAAUUUGUAUUGUUGUAUAGUUUUAUUGAUUACACUGAUUUAUUCUACCCUAUUUUAUAAU: 0.761
CAGAAGUGCAUCGGGAUUCAGAAUGACCAACCUAAGAAGCACAAAUUUAGUUUGGGUGUUCCUCAUCACAUGUAUAUACGGACUAUCCAUUGAACUUAAUCUGUGUGGCU: 0.228
UCUCAGUGCUCUACAGAACCCCCAGAGGGAAGCUGAUUAUACAUUCCAGGAAGGCGGCCGGUAGCUUAGUGUAGCCUCUGCAAUAAAAGAGCUUUUCCUUAAUGUUUGCU: 0.669

Series 5 — technique: DHFR PCA, deep sequencing; matrix: yeast; added: (+)-ABA 710 µM; baseline: wild-type fitted maximum; direction: higher = stronger binding; endpoint: relative binding score
Target: ABI1, truncated, D143A, DHFR fusion (Arabidopsis thaliana)
Notes: methotrexate growth selection, single substitutions
Starting sequence: PYL1, truncated, DHFR fusion (Arabidopsis thaliana); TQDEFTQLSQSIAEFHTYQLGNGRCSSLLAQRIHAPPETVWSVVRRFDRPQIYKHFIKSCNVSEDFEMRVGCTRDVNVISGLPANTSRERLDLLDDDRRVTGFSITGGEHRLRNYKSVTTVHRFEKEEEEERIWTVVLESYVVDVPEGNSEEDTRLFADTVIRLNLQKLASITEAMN; partner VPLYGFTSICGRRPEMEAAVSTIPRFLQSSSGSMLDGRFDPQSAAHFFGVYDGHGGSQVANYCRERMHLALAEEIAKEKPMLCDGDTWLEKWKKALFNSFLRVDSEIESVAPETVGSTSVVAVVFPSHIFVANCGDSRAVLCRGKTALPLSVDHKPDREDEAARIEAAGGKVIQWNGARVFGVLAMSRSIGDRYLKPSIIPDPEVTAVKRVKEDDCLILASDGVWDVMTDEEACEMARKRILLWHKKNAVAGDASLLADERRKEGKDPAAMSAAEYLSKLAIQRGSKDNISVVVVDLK
F5D: 101%
L29G: 33.5%
E14H: 92.7%
Y53T: 55.7%
T106I: 120%
T135Y: -3.84%
H110I: -9.32%
D65A: 103%
T101F: 117%
D48V: 32.4%
E129S: 114%
G148L: 83.3%
R24S: 99.8%
L138V: 92.3%
E64V: 101%
V62D: 50.6%

Some of these lines once more (series 4):
CGUUCACUUACUGUAUAAUUUAAAAUCAUUUAUGUAGCUGAGACACUUCUGUAUUUCAAUCAUAUCAUGAACAUUUUAUUUUGCUAAAUCUUGUGUCAUGUGUAGGCUGU: 0.316
GCAGCGAUACCAGAGCCACCCGGACGCCGCUGUGCAGUGCGUGGCCUGCGGCCGGGCUGCCCUUCGCUGCCAGGACACCUGCCCCAGCGCGGCUUGGCCGCCAUCCGGGA: 0.174
AAAAGUUAACUUGUAUUAUGUAUUUUUACUACACUUUUCUUAAAAAUAGAGCAUUGGGAAAACUCUGAAAGAGACUGACAUUUUUCUCAACAGGAAUCCAUACUUAACAG: 0.58
UAGUCAUGACUGCAAAGAGAGAGAAUAAACUGCCCGCUCAGAAGAUAUGUAAUUUGUAUUGUUGUAUAGUUUUAUUGAUUACACUGAUUUAUUCUACCCUAUUUUAUAAU: 0.761
CAGAAGUGCAUCGGGAUUCAGAAUGACCAACCUAAGAAGCACAAAUUUAGUUUGGGUGUUCCUCAUCACAUGUAUAUACGGACUAUCCAUUGAACUUAAUCUGUGUGGCU: 0.228
